Measured values of several laboratories.
Parts stem from different laboratories: compare values within a part only. Substitutions count along the parent as printed.

Set 1 — target: vanadate, free oxyanion; method: microfluidic competitive inhibition; matrix: in vitro, cell-free expressed; concentration: not given; reading: lower = stronger binding; measurement: oxyanion analog dissociation constant
Setting: derived from inhibition constants, unchanged parent 676 nM
Starting sequence: PafA, mature enzyme, eGFP fusion (Elizabethkingia meningoseptica, UniProt Q9KJX5); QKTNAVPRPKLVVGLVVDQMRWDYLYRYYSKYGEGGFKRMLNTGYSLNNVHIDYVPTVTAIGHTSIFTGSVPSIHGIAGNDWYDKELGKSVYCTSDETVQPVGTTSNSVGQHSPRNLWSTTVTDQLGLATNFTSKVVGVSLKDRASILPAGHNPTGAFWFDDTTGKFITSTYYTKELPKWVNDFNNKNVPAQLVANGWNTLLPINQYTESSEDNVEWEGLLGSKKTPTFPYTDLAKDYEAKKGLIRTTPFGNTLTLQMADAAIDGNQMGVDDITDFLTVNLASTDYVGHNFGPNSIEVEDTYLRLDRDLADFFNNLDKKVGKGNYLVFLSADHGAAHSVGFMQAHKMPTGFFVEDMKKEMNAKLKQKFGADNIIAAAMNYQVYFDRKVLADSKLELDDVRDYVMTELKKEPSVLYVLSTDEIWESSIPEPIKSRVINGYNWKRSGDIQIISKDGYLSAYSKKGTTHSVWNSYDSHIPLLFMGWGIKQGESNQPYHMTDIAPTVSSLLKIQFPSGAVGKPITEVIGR
N131V: 755 nM
R39G: 558 nM
L87V: 615 nM
I66G: 636 nM
S283V: 2090 nM
T253V: 1620 nM

Set 2 — method: protein-binding microarray; form: double-stranded DNA, one strand shown; matrix: in vitro; concentration: not given; reading: higher = stronger binding; measurement: E-score
Target: Max-binding protein MNT, bHLH-zipper, MAX partner unstated (MNT, Homo sapiens, UniProt Q99583, residues 220-300)
Setting: k-mer, scored over probes, only values ≥0.25
Target sequence (chain): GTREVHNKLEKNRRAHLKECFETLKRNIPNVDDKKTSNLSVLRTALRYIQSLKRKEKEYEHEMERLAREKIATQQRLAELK
ATGTGCAA: 0.258
ACATGGCT: 0.315
ATGCTGCA: 0.268
CGTGTTGA: 0.295
CATGTAGC: 0.278
ACGCTGTC: 0.298
GTGTTGCA: 0.269
CAACCCAC: 0.275

Set 3 — target: CCND2, cyclin fold, Cln2 fusion (human); method: yeast growth competition, sequencing; matrix: yeast; setting: strong parent motif; baseline: not given; reading: higher = stronger binding; measurement: normalised enrichment score
Starting sequence: viral docking peptide; YKVKRRLVFGADD; partner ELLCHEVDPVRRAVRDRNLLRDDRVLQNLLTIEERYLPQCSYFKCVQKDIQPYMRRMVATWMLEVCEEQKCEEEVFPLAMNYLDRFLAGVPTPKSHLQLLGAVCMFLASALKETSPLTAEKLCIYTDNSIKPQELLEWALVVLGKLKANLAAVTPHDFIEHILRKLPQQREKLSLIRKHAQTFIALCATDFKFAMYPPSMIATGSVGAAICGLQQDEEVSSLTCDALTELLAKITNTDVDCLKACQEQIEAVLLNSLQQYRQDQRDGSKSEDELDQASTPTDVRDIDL
F9A: -0.223
K4M: -0.14
F9L: 0.449
R5D: 0.0198
F9T: 0.466
K4S: 1.86
A11C: 1.19
D13A: 0.267
R6G: -0.0317
R6F: -0.0698
G10S: 1.13
V8S: 2.83
D12M: 1.08
A11T: 1.67
F9Q: 0.321

Set 4 — method: RNA Bind-n-Seq; form: RNA; matrix: in vitro; concentration: not given; setting: RNA with constant flanks, ends assumed; baseline: input RNA pool; reading: higher = stronger binding; measurement: bound/input enrichment
Target: RING finger protein unkempt homolog, zinc fingers 1-6, GST-SBP tag (UNK, Homo sapiens, UniProt Q9C0B0, residues 30-357)
Target sequence (chain): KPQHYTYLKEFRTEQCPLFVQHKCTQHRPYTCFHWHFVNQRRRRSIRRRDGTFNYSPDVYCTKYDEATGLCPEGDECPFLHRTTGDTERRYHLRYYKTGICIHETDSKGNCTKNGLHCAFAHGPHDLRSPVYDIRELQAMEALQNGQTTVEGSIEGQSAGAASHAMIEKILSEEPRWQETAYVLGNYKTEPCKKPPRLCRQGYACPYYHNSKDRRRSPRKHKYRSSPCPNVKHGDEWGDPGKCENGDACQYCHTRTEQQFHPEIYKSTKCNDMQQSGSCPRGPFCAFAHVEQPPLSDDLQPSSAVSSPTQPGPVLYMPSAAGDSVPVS
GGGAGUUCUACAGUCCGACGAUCCAUGGAAAUAUUAUCUACAUCCACAUAAGAGAUAAAACCUGGGAUGUACAUGAAUAUUUGAACCGUCUUUUUGAAGAAUUAAAAUCUUGGAGAGAUGUUUAUUGGCGUUUGUGGGGCACACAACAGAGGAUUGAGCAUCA: 0.425 ratio
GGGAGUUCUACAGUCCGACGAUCCAGAAGUGGAUUGAGCAAGUAACUGGCAGAAGUUUUGGUGAUAAAGAUUUUCGGACAGGUUCCGAAAAUGGAAUCCUCCUCUGCGAGUUGCUGAAUGCUAUAAAGCCAGGACUUGUUAAACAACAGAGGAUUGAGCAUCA: 0.0968 ratio
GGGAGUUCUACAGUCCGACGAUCCCCCUAUCUAGGCCUUCUUACGAGCCAAAACCUGCCCCUACUCCUCCUAGACCUAACCUGACCCGAAAAGCUAUUACCUAAAACAAUUUCACAGCACCAAAUCUCCACCUCCAUCAUCACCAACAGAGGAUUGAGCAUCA: 3.45 ratio
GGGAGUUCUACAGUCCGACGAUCACCUCUUUAGUGUGUUCUGUGACGCUGCUCAUUACGAUUCUGUGUUCUACUUUGAUCCUUUCCGCUGUUUUCAAAUAUGGCCACUUUUCCCUGUAAGUUUUGUACAGCUAAGUGUUUUCUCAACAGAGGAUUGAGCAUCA: 0.238 ratio
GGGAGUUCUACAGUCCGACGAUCGCUAUGCAGCUAUAUUCUGUAGAUAGGAAAGUGUCUCAGCCCAUUGAAGGACAUGCAGCCCGCUUUGCACAGUUUAAGAUGGAAGGAAAUGCAGAAGAAUCAACGUUAUUUUGUUUUGCACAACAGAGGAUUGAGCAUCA: 0.638 ratio
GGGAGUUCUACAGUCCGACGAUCGGCUAUUUGAAAUAGACUAGAUUGUGUUGUCAAAUCAAGAAUGGGUGUGCAUGUGCUUGUCUCCGAAGUAUCACUGCUUUUUGCAUCUUAACUGCAGUUAAUUUUCCUUCCGACUGCGGUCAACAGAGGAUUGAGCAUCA: 0.382 ratio
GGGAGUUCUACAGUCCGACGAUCACCUGAGAAUGAUGCUAAGAAAAUUGAAGCACUGCUAAACCUUCCUAGAAACCCUUCAGUAACCGAUAAACAAGACAAGGACUGAAAGUGCUCUGAACUUGAAACUCACUGGAGAGCUGACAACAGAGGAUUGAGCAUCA: 0.237 ratio
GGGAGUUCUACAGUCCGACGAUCGAAGCUGCAGCACUACUAGAAAGUGGUAGUUCAGUGGGCGAUGAGACCGAUCUUGCUAAUUCCGGGGAUGUAUCUUCUGAUGGGAAAAAGGAGCCUUCAGAUAAAGCUGUGAAAAAAGAUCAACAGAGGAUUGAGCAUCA: 0.0811 ratio

Repeated from above (set 3):
F9L: 0.449
K4M: -0.14
